Measurements collected from several papers.

| Compound | target or system | assay | system | conditions | scale | measurement | result |
| --- | --- | --- | --- | --- | --- | --- | --- |
| [O-][S+]1CCc2nc(N3CCC(c4ncc(Cl)cn4)CC3)nc(NC3(CO)CCC3)c21 (stereo not drawn) |  | item: gastrointestinal disorders | healthy male humans | 6 mg twice daily |  | adverse event incidence | 25% |
| Cc1cccc(Cn2nc(C3CC3)c3c(NC(=O)c4cnc5cc(OCCN6CCN(C)CC6)ccn45)cccc32)n1 |  | item: Constipation | human pancreatic ductal adenocarcinoma | oral, dose not given, all-causality |  | adverse events incidence | 25.9% |
| O=c1ccc2ncc(=O)n3c2n1C[C@H]3CN1CCC(NCc2cc3c(cn2)OCCC3)CC1 |  | item: vessel puncture site bruise | healthy human participants | oral, 1500 mg, added: rifampicin 600 mg |  | adverse event incidence | 0% |
| COc1ccc(Nc2nc(Nc3ccc(OC)cc3OC)nc(N3CCOCC3)n2)c(OC)c1 | Vero-E6 | CellTiter-Glo ATP |  | concentration not given, 72 h, second round 5-point | baseline: DMSO 0%, hyamine -100%, more negative, more toxic | cytotoxicity efficacy | 0% |
| Nc1cccc(S(=O)(=O)N2CCCN(S(=O)(=O)c3ccc4c(c3)OCCO4)CC2)c1 | human coronavirus OC43 | virus-induced cell killing | MRC-5 | screen |  | maximum inhibition | 8.41% |
| Cc1ncc2n1-c1ccc(Cl)cc1C(c1ccccc1F)=NC2 |  |  | healthy humans | oral, dose not given |  | adverse event Erythema | 0% |
| O=C(c1ccc(F)c(F)c1Nc1ccc(I)cc1F)N1CC(O)([C@@H]2CCCCN2)C1 |  |  | human patients | oral, 1 mg/kg, dose expansion |  | adverse events of special interest | 50% |
| C[C@@H](c1nc(-c2ccc(C#N)cc2)cs1)[C@](O)(Cn1cncn1)c1cc(F)ccc1F |  |  | healthy humans | oral, dose not given, added: midazolam |  | adverse event Erythema | 8.7% |
| COc1ccc(C[C@@H]2NC(=O)[C@H]([C@@H](C)O)NC(=O)[C@@H]3[C@@H]4CCN3C(=O)[C@@H]3Cc5cn(c6ccc(F)cc56)CCCCCCN(Cc5ccc(cc5)CCNC(=O)[C@]5(C)CCCN5C2=O)C(=O)CCC(=O)N[C@@H](C)C(=O)N[C@H](CNC(=O)CCCCC[N+](C)(C)C)C(=O)N[C@@H](Cc2cccc(c2)CNC(=O)CO4)C(=O)N3)cc1 |  | item: breast fibroma | human | Study-003 safety |  | adverse events | 0% |
| Cn1ncc(-c2nc(N[C@H]3CC[C@H](N)CC3)ncc2Cl)c1CC1CC1 |  | item: thrombocytopenia grade 3 or higher | human patients phase I | dose not given |  | adverse event incidence | 23% |
| CCCCN(CCCC)CCCNC(=O)c1cc(-c2ccc(Cl)s2)nc2ccccc12 | Vero-E6 | CellTiter-Glo ATP |  | concentration not given, 72 h, retest 8-point duplicates | baseline: DMSO 0%, hyamine -100%, more negative, more toxic | cytotoxicity efficacy | -16.1% |
| O=C(Nc1ccccc1)C1CCN(C(=O)Oc2cccnc2)CC1 |  | item: Overall | healthy female human | concentration not given, all doses pooled |  | adverse event incidence | 83% |

Excerpt of the above:
| Compound | target or system | assay | system | conditions | scale | measurement | result |
| --- | --- | --- | --- | --- | --- | --- | --- |
| Nc1cccc(S(=O)(=O)N2CCCN(S(=O)(=O)c3ccc4c(c3)OCCO4)CC2)c1 | human coronavirus OC43 | virus-induced cell killing | MRC-5 | screen |  | maximum inhibition | 8.41% |
